Published values gathered from unrelated publications.
Each numbered part is a random draw from the data of one study; scales do not carry over between parts. Positions count from the first letter of the parent shown.
Sequence of UniProt Q9FKM7 (whole entry, looked up): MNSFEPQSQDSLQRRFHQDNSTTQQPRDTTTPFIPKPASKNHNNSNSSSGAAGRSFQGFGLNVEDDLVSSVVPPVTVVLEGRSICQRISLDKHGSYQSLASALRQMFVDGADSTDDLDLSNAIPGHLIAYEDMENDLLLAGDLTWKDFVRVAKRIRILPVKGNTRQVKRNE
Sequence of UniProt Q9ZPY6 (whole entry, looked up): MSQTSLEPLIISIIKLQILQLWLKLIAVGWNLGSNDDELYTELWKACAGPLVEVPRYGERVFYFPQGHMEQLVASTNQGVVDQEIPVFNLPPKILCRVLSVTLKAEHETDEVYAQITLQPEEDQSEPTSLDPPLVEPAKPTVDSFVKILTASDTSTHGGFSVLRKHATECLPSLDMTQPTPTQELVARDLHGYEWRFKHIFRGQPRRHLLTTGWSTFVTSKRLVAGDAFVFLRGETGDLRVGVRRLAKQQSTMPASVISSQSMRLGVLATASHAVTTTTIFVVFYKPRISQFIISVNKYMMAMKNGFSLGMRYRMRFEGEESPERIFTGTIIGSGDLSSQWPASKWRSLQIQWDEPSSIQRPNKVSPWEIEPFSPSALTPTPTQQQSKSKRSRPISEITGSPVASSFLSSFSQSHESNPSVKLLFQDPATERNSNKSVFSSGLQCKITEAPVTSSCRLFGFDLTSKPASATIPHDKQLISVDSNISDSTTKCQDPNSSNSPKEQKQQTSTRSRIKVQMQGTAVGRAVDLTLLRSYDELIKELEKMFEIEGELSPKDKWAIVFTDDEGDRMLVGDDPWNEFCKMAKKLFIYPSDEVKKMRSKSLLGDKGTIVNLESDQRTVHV
Sequence of UniProt Q8RYC6 (whole entry, looked up): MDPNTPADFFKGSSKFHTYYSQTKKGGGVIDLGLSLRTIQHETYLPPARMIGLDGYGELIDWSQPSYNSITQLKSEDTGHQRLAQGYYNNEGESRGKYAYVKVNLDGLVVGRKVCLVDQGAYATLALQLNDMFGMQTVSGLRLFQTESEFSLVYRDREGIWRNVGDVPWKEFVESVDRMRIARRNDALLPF
Sequence of UniProt Q94JM3 (whole entry, looked up): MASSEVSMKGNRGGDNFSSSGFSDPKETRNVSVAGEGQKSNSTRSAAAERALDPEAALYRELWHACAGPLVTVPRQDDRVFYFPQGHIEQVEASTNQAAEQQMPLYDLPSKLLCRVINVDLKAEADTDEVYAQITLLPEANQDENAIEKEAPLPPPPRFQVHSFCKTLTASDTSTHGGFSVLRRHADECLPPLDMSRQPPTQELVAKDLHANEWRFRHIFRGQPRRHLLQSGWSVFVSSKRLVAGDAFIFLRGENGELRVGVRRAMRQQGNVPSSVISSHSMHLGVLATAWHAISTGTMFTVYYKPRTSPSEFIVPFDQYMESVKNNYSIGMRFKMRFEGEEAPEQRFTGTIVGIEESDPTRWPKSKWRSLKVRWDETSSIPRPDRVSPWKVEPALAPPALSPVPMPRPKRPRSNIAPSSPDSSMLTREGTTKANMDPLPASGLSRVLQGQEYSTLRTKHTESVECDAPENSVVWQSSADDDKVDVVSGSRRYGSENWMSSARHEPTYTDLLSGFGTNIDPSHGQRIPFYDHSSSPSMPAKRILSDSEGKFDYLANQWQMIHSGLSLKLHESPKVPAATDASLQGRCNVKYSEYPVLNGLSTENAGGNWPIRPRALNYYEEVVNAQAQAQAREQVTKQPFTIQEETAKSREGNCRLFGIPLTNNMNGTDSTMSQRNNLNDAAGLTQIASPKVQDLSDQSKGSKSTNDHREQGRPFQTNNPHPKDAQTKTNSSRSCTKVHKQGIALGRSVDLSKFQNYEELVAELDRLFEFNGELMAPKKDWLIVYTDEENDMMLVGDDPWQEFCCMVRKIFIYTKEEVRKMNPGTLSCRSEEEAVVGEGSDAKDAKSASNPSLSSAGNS
Sequence of UniProt Q9FX25 (whole entry, looked up): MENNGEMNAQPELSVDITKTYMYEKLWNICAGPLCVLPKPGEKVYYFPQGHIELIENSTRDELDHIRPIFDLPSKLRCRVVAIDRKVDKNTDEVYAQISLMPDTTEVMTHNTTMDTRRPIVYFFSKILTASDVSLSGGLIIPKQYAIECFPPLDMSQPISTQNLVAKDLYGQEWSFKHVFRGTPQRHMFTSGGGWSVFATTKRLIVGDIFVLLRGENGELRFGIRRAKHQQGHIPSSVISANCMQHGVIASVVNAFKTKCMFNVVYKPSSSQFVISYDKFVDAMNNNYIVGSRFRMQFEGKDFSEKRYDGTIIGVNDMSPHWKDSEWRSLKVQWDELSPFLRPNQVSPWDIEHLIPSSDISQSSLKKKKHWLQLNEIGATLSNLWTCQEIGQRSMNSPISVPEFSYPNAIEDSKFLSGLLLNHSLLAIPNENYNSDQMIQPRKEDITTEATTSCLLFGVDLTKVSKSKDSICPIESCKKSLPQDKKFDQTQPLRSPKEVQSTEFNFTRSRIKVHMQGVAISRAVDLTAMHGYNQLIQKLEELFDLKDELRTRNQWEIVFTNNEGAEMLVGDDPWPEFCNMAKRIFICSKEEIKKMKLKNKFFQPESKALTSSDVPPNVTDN
Sequence of UniProt P93022 (whole entry, looked up): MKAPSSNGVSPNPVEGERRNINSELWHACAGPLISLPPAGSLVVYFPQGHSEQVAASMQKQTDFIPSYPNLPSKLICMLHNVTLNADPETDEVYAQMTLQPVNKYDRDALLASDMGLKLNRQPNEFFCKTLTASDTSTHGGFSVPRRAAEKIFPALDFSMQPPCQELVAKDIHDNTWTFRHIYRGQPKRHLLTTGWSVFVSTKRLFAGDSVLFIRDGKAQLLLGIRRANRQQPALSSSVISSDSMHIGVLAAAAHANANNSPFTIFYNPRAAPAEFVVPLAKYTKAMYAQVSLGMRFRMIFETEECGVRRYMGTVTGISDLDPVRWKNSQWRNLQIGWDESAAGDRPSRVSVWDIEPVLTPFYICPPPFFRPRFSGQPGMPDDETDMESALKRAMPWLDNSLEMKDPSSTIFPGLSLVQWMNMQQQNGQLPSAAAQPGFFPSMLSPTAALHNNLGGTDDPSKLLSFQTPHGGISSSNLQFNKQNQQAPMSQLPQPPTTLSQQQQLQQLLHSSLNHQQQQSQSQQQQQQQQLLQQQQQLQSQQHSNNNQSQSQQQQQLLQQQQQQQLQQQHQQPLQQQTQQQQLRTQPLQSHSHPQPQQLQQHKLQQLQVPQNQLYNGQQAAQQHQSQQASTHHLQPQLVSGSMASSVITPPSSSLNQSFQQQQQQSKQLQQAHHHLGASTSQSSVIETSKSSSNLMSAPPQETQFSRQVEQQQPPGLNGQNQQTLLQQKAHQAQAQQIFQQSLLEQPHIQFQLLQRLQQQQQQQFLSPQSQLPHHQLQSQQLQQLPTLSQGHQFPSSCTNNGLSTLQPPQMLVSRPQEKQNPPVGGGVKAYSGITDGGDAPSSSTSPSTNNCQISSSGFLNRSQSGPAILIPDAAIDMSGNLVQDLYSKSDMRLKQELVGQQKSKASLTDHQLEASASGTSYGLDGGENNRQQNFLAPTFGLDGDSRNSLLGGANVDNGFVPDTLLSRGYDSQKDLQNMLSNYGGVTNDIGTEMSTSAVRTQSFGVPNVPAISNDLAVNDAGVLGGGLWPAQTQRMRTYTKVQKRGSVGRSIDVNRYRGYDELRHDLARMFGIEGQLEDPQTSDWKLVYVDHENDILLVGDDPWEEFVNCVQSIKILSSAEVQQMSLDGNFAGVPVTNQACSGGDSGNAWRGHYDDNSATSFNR
Sequence of UniProt Q8L7G0 (whole entry, looked up): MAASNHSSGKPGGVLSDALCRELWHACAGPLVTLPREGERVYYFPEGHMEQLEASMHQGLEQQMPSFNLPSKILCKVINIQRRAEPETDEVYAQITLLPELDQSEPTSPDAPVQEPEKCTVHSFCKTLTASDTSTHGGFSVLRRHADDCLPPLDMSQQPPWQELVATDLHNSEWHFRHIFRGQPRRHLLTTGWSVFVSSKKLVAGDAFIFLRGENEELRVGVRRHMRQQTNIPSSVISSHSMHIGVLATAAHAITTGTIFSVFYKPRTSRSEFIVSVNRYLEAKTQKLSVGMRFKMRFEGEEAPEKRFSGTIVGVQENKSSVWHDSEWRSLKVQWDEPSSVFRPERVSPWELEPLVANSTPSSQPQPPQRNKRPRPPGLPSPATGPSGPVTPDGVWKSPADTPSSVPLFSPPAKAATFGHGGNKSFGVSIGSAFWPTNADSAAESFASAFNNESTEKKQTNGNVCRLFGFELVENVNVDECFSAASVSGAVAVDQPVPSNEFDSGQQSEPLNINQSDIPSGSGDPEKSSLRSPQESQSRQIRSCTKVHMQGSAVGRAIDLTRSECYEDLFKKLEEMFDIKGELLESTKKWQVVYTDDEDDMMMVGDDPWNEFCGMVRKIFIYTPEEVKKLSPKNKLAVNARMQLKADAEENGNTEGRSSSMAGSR
Sequence of UniProt Q8H174 (whole entry, looked up): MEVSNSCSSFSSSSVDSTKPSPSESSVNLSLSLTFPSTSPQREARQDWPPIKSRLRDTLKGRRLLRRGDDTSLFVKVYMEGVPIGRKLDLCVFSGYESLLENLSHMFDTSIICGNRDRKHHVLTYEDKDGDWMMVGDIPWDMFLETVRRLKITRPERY

Study 1 — method: RNA Bind-n-Seq; form: RNA; sample: in vitro; tested at: 365 nM; relative to: no-protein control; reading: higher = stronger binding
Target: RNA binding protein fox-1 homolog 2, RRM domain, GST-SBP tag (RBFOX2, Homo sapiens, UniProt O43251-10, residues 100-194)
Setting: natural RNA segment, single round, ends assumed
All sequences stand within: GGGAGUUCUACAGUCCGACGAUC … UGGAAUUCUCGGGUGCCAA
Construct (chain): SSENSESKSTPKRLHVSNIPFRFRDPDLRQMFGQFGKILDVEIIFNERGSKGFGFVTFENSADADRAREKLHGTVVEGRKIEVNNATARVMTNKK
| Strand | RBNS enrichment (R) |
| --- | --- |
| GAAGAUUUUUAUCUUCUGCAGUGCUGAUGGCCGGGAGGAACCAUUCAAAGCCACUGGUUAUUUUGUUUUUCAUCAGGCGAUUUUCAAGAUUUUCAUUUGUUUCAGUAUUG | 0.628 |
| CUUUUGGAAUUUUCCACAGGUACCUGUACAACUUGAUAUUUGAAAACAGGAUUCAUCACCAUAUAUCCCCAGCCCCCGUUUUCUUUUUAAACAGGCCUCAUUGCGUAAUU | 0.506 |
| UCAUUAGAGAGCAUUAUCAGAGAUGUGGAGUCCAUCAGAAGACCAGCUUGCAGUGUGUAUAGCAUAUAGAUGCCAAUAUUAGAAUUCUUUAAAUUAUAUUUAACAUUUUC | 0.845 |
| UGUUAUUAUUAUUGUUAUUAUUAACAAUCUUGGGUGGGUAGUAGGAGAGCAAAAAGUAUGAAUGGGAUGGAGCUAAGAAGUCUGAAUACUUAAUGAAAUGGACUUUUUGG | 2.18 |
| AGACCACCAAAGAUUCCCUGUCCAUGACCUCUGAGGCGGGGUUACCUUGCUUGUCGGACCAAGGCAGCGAUGGUUGUGAUGAUGAUGGCUUGGUGAUAUCUGGGUAUGGC | 1.3 |
| UCUGCUAAAUUUCACUGAUUUUAAUCAUGCUGGAGACCUUAACUCCCAUCCUGAUACAUCCUGAAGUAACACUGUUUUAAACUUUCUUAGUGCUGGAGUAAAAGGUCAAG | 0.338 |
| UCUUUGCAGCUGUCAGUUGCUCUUUCAACUCUAGGAUCCAUCUUUGGACCAGAAGCCUGGUCUGUGCCUAGGAUGACACUGGCCCCAGAGAUGCUAGAGUCGACUGCACU | 0.203 |
| UAGCUAUUUUUAUACACUGUAAGCUUUGUUCUGGGAGUUGCUGUUAAUCUGAUGUAUAAUGUAAUGUUUUUAUUUCAAUUGUUUAUAUGGAUAAUCUGAGCAGGUACAUU | 0.719 |
| UAAAAACUGCAAAACCAAUCUGUAUCAUGUACCAAACUGACUUAAAAUAAAUCUACAUGUUUAUUGAUUAAUAGUGUGUUACUGCGUUUUGCUUAUAAAAUUUAAUGCUU | 0.409 |
| GACAUUUUUCCCUAUUUUCCUCACUUUAUGGAAGAGUUAAAACAUUUCUAAACCAGAGGACAAAAGGGGUUAAUGUUACUUUAAAAUUACAUUCUAUAUAUAUAUAAAUA | 0.854 |
| ACCGUAUUCCUCUCCCAGGUGUUUGUGGGGCUGGAAGGACCUGCUCCCACAGGGGCCAUGUCCUCUCUUAAUAGGUGGCACUACCCCAAACCCAUCUUUUGUUCUCCUAU | 0.613 |
| UCUUCUUUUUAAAAAGAAAAUAGAGAAUAGCAAAUCUUCAUGAUAAUCCUCAAAAGAACAAAAUGCUUAACUUUAUCUCUUAAUUUCUAAAGGUAAAUAACCUAGGUUCA | 0.327 |

Study 2 — method: protein-binding microarray; form: double-stranded DNA, one strand shown; sample: in vitro; tested at: 250 nM; setting: 60-bp whole probe; with: salmon DNA 0.4 mg/ml; relative to: random background probes; reading: higher = stronger binding; all sequences stand within: GCCTAGCAC … GTCTTGATTCGCTTGACGCTGCTG
Target: Interferon regulatory factor 7, full length, phosphomimetic (IRF7, Homo sapiens, UniProt Q92985, residues 1-503, S101K/S471D/S472D/S475D/S476D/S477D/S483D/S484D/S487D)
Sequence of UniProt Q92985 (whole entry, unmodified, looked up): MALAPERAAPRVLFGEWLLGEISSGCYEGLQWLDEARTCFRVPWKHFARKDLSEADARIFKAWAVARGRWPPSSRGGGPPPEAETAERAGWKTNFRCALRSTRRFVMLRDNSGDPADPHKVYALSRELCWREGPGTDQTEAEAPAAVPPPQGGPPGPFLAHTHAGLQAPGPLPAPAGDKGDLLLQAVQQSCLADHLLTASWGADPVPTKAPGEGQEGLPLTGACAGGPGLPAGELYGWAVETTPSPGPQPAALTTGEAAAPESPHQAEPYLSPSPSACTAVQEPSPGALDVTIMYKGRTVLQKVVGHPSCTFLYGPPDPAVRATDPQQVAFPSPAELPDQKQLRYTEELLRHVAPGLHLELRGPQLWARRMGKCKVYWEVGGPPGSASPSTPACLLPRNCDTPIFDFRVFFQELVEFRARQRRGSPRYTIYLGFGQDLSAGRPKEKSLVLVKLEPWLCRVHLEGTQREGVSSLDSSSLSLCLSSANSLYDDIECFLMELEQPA
| Strand | log fluorescence [z-score] |
| --- | --- |
| TCATTTCTATATTTGCTACTGTGCTAG | 1.93 |
| ATTTTTCTAATTTACTTTGGGTGCTAG | 2.35 |
| TTAGATATCAGTCTCGAATAGTGCTAG | 0.481 |
| TTAGGACTGGGTATCGGATAGTGCTAG | 0.105 |
| GACGGACTGGGCTTCGGGACGTGCTAG | -0.439 |
| TTACGACTGCTTTTCCTTTAGTGCTAG | 0.404 |
| TCAGTTTTACAATTTGCACTGTGCTAG | 0.396 |
| GACGGAGTGGGGTTTCGGGACGTGCTA | 1.05 |
| TTAGAACTGGGGTAGCGATTAGTGCTA | -0.926 |
| TAAGATTTCAGTCTCGATTAGTGCTAG | 2 |
| GACGGTTCCGACTTTCGGGACGTGCTA | 1.22 |

Study 3 — target: CCNB2, cyclin fold, Cln2 fusion (human); method: yeast growth competition, sequencing; sample: yeast; setting: strong parent motif; relative to: not given; reading: higher = stronger binding
Starting sequence: MICAL3 docking peptide (human); LQLRRQLSFSEDS
| Variant | normalised enrichment score |
| --- | --- |
| L3D | 0.145 |
| L7W | 0.534 |
| L7V | 0.0737 |
| L7K | 0.392 |
| L3K | -0.0704 |
| D12M | 2.99 |
| S8P | 0.249 |
| S10Y | 1.3 |
| Q6G | 0.434 |
| D12K | 2 |
| R4C | 2.44 |
| Q2Y | 2.49 |
| R4S | 1.6 |
| R4N | 2.06 |
| R5S | 0.11 |
| R4A | 3.34 |
| R4W | 0.979 |
| S8W | 0.946 |
| S8A | 0.582 |
| Q6H | 2.82 |
| D12W | 1.96 |
| R5M | 0.441 |
| R5W | 0.326 |
| S8V | 1.29 |
| F9D | -0.507 |

Study 4 — Sequence: B1 (IAA15); method: two-hybrid; reading: higher = firmer interaction
B1: IAA15 (Arabidopsis thaliana, UniProt Q9C966); chain MSPEEYVRVWPDSGDLGGTELTLALPGTPTNASEGPKKFGNKRRFLETVDLKLGEAHENNYISSMVTNDQLVGWPPVATARKTVRRKYVKVALDGAAYLRKVDLGMYDCYGQLFTALENMFQGIITICRVTELERKGEFVATYEDKDGDLMLVGDVPWMMFVESCKRMRLMKTGDAIGL
| partner | scale | positive tests |
| --- | --- | --- |
| ARF13 (Arabidopsis thaliana, UniProt Q9FX25) | relative to: out of 4 tests | 0 |
| IAA32 (Arabidopsis thaliana, UniProt Q8RYC6) | relative to: out of 4 tests | 2 |
| ARF1 538-665 (Arabidopsis thaliana, UniProt Q8L7G0) | relative to: out of 4 tests | 0 |
| IAA31 (Arabidopsis thaliana, UniProt Q8H174) | relative to: out of 2 tests | 0 |
| ARF7 1030-1164 (Arabidopsis thaliana, UniProt P93022) | relative to: out of 4 tests | 3 |
| ARF11 500-622 (Arabidopsis thaliana, UniProt Q9ZPY6) | relative to: out of 2 tests | 0 |
| IAA33 (Arabidopsis thaliana, UniProt Q9FKM7) | relative to: out of 4 tests | 3 |
| ARF2 727-859 (Arabidopsis thaliana, UniProt Q94JM3) | relative to: out of 4 tests | 1 |

A few entries again (study 3):
| Variant | normalised enrichment score |
| --- | --- |
| Q6H | 2.82 |
| D12W | 1.96 |
| R5M | 0.441 |
| R5W | 0.326 |
